Assay results collected from several papers.
Numbers after ± are the reported error.

`COc1ccc(C(=O)NC(=S)Nc2c(Cl)cc([N+](=O)[O-])cc2Br)cc1OC` has a viability of 85% (BHK-21; cell growth or viability, MTT; 100 µM, serum-free).
For `Cc1c(O)cc(C[C@]23C[C@H](C[C@H](C)O2)c2c4c(c(O)c(C)c2O3)CO[C@]2(CCC[C@H](C)O2)C4)c(C=O)c1O`, the IC50 was 7.3 µM (NCI-H1975; cell growth or viability).
`CCCCCCCCCCCCCNCC(=O)N(CC(=O)N(CCCCN)CC(=O)N(CCN)CC(=O)N(CC(N)=O)Cc1ccc(Cl)cc1)Cc1ccc(Cl)cc1` has a TD50 of 72 ± 24 µg/mL (HepG2; cytotoxicity, MTT; 72 h).
`CC1=C(CO)C(=O)O[C@@H]([C@@H](C)[C@H]2CC[C@H]3[C@@H]4C[C@H]5O[C@]56[C@@H](O)C=CC(=O)[C@]6(CO)[C@H]4CC[C@]23C)C1` has an IC50 of 12.1 ± 0.42 µM (MRC-5; cytotoxicity, MTS).
Under “maximal non-toxic concentration”, `Cc1ccc(S(=O)(=O)[O-])cc1.Nc1c([I+]c2ccccc2)c(=O)oc2ccccc12` is recorded as 1 µg/mL (BHK-21; MTT).
`C=C(C[C@H](N)C(=O)O)C(=O)NCc1ccc(F)cc1` has an EC50 of > 316 µM (SK-BR-3; necrosis; 24 h).
For `Polymyxin B`, “minimal haemolytic concentration” read 2000 µg/mL (human red blood cells; 4 h, pH 7.4).
With `COc1ccc2[nH]cc(CCNC(C)=O)c2c1` the efflux ratio was 0.99 ± 0.07 (parental MDCK-II cells; 10 µM, 4 h).
The TD50 of `CCCCCCCCCCCCCNCC(=O)N(CC(=O)N(CCCCN)CC(=O)N(CCN)CC(=O)N(CC(N)=O)c1ccccc1)c1ccccc1` is reported as 81 ± 25 µg/mL (HepG2; cytotoxicity, MTT; 72 h).
`C[C@H](NC(=O)[C@@]1(Cc2ccccc2)CCN1C(=O)OCc1ccccc1)C(=O)NC(C)(C)C` — result for “minimum cytotoxic concentration”: > 100 µM (HEL; microscopic cell morphology).
For `Fc1cccc(/C=N/N=C/c2cccc(F)c2)c1`, “highest non-cytotoxic concentration” read 500 µM (BV-2; 24 h).
The CC50 of `Cc1nc(C(NC(=O)c2ccc(-c3ccc(Cl)cc3)[nH]2)C2CCCCN2)sc1CO` (mixture of isomers) is reported as ~25 µM (U87.CD4.CXCR4; cell growth or viability, XTT; 72 h).
With `CC(=N)NCCCC[C@H](N)C(=O)O` the CC50 was > 50 µM (BV-2; cell viability, resazurin).
`O=C(Nc1nc2ccccc2[nH]1)c1cc(Cl)ccc1Cl` — result for “highest non-cytotoxic concentration”: 100 µM (BV-2; 24 h).
With `O=c1c(-c2ccc(O)cc2)coc2c([C@@H]3O[C@H](CO)[C@@H](O)[C@H](O)[C@H]3O)c(O)ccc12` the efflux ratio was ~1 (rat nasal epithelial cells; Transwell bidirectional transport; 25, 50, 100 µg/mL, 180 min).
For `C[C@H](NC(=O)[C@@]1(Cc2ccccc2)CCN1C(=O)OCc1ccccc1)C(=O)N(C)C`, “minimum cytotoxic concentration” read > 100 µM (HEL; microscopic cell morphology).
`CCCCCCCCCCCCCNCC(=O)N(CC(=O)N(CCCCN)CC(=O)N(CCCCN)CC(=O)N(CC(N)=O)C1CCCCC1)C1CCCCC1` gave a TD50 of 165 ± 97 µg/mL (HepG2; cytotoxicity, MTT; 72 h).
`C[C@H](NC(=O)[C@]1(Cc2ccccc2)CCN1C(=O)OCc1ccccc1)C(N)=O`: “minimum cytotoxic concentration” > 50 µM (HEL; microscopic cell morphology).
The TD50 of `CCCCCCCCCCCCCNCC(=O)N(CC(=O)N(CCCCN)CC(=O)N(CCN)CC(=O)N(CC(N)=O)CC1CCCCC1)CC1CCCCC1` is reported as 62 ± 3 µg/mL (HepG2; cytotoxicity, MTT; 72 h).
`Nc1nc(O)c2ncn(COC(CO)CO)c2n1` gave a CC50 of > 150 µM (HFF primary foreskin fibroblasts; cell viability, CellTiter-Glo).
`OC[C@H]1O[C@@H](n2cnc3c(NCc4ccccc4)nc(-n4cc(-c5ccccc5)nn4)nc32)[C@H](O)[C@@H]1O` — result for “minimum cytotoxic concentration”: 200 µM (HEL; cell morphology).
`CC(C)(C)[C@H](NC(=O)C(F)(F)F)C(=O)N1C[C@@H]2CCC[C@@H]2[C@H]1C(=O)N[C@H](C#N)C[C@@H]1CCNC1=O`: cytotoxicity “not toxic” (Vero E6 cells; concentration not given, 24 (unit not given)).
For `CCCCCCCCCCCCCNCC(=O)N(CC(=O)N(CCCCN)CC(=O)N(CCN)CC(=O)N(CC(N)=O)Cc1ccc(F)cc1)Cc1ccc(F)cc1`, the HC10 was 59 ± 22 µg/mL (human red blood cells; hemolysis; 1 h).
For `COc1ccc(C(=O)Nc2cc(Cl)c(O)c(Cl)c2)cc1OC`, the viability was 35% (BHK-21; cell growth or viability, MTT; 100 µM, serum-free).
For `C[C@H](NC(=O)[C@]1(Cc2ccccc2)CCN1C(=O)N[C@@H](C)c1ccccc1)C(N)=O`, “minimum cytotoxic concentration” read > 100 µM (HEL; microscopic cell morphology).
The EC50 of `C=C(C[C@H](N)C(=O)O)C(=O)Nc1ccccc1` is reported as 0.195 µM (SK-BR-3; necrosis; 24 h).
`Cc1cc(C)cc(C(=O)Nc2cc(Cl)c(S(N)(=O)=O)cc2S(N)(=O)=O)c1` gave a viability of 48% (BHK-21; cell growth or viability, MTT; 100 µM, serum-free).
For `O=C(Nc1nc2ccccc2[nH]1)c1cc(Cl)cc(Cl)c1`, “highest non-cytotoxic concentration” read 800 µM (BV-2; 24 h).
With `CC(=O)Oc1ccccc1C(=O)Nc1ncc([N+](=O)[O-])s1` the CC50 was 51.2 µM (J2 human intestinal enteroids; 24 h).
For `CC(=O)Oc1ccccc1C(=O)Nc1ncc([N+](=O)[O-])s1`, viability read “decreased” (BV-2; 80, 160 µM, 24 h).
Under “minimum cytotoxic concentration”, `CC(C)[C@H](NC(=O)[C@]1(Cc2ccccc2)CCN1C(=O)OCc1ccccc1)C(N)=O` is recorded as > 100 µM (HEL; microscopic cell morphology).
`ILPWKWPWWPWRR` — result for “minimum haemolytic concentration”: 125 µg/mL (human red blood cells; haemolysis; peptide; 4 h, pH 7.4, 25 °C).
`CCCCCCCCCCCCCNCC(=O)N(CC(=O)N(CCCCN)CC(=O)N(CCN)CC(=O)N(CC(N)=O)C1CCCC1)C1CCCC1` gave a TD50 of > 200 µg/mL (HepG2; cytotoxicity, MTT; 72 h).
Under “highest non-cytotoxic concentration”, `CN(C)c1cccc(C(=O)Nc2nc3ccccc3[nH]2)c1` is recorded as 300 µM (BV-2; 24 h).
`Nc1ccn(C[C@@H](CO)OCP(=O)(O)O)c(=O)n1` — result for “minimum cytotoxic concentration”: > 300 µM (HEL; cell morphology).
`C[C@H](NC(=O)[C@]1(Cc2ccccc2)CCN1C(=O)Oc1cccc2ccccc12)C(N)=O`: “minimum cytotoxic concentration” > 100 µM (HEL; microscopic cell morphology).
`O=S(=O)(O)c1cc(N=C=S)ccc1C=Cc1ccc(N=C=S)cc1S(=O)(=O)O` gave a chloride permeability of 0.00045 mmol/kg Hb/min/mM (human red blood cells; 10 µM, 0 °C, added: 20 µM valinomycin).
For `Cc1cc(C)cc(C(=O)NC(=S)Nc2cc(Cl)c(O)c(Cl)c2)c1`, the viability was 59% (BHK-21; cell growth or viability, MTT; 100 µM, serum-free).
The IC50 of `CCCCOc1c2cc(C(=O)Nc3cc(C(=O)O)cc(C(=O)OCc4ccccc4)c3)cc1Cc1cc(C(=O)Nc3cc(C(=O)O)cc(C(=O)OCc4ccccc4)c3)cc(c1OCCCC)Cc1cc(C(=O)Nc3cc(C(=O)O)cc(C(=O)OCc4ccccc4)c3)cc(c1OCCCC)Cc1cc(C(=O)Nc3cc(C(=O)O)cc(C(=O)OCc4ccccc4)c3)cc(c1OCCCC)C2` is reported as > 50 µM (MT2; cell growth or viability).
`CCCCCCCCCCCCCNCC(=O)N(CCc1c[nH]c2ccccc12)CC(=O)N(CCCCN)CC(=O)N(CCN)CC(=O)N(CCc1c[nH]c2ccccc12)CC(N)=O` has a TD50 of 85 ± 10 µg/mL (HepG2; cytotoxicity, MTT; 72 h).
`C=C(C[C@H](N)C(=O)O)C(=O)Nc1ccc(F)cc1` gave an EC50 of 0.182 µM (SK-BR-3; necrosis; 24 h).
`CCCCc1cn(-c2nc(O)c3ncn([C@H]4C[C@H](O)[C@@H](CO)O4)c3n2)nn1` — result for “minimum cytotoxic concentration”: > 270 µM (HEL; cell morphology).
The CC50 of `COC(=O)c1[nH]cc2c1[C@]1(CNc3ccc(Cl)cc31)c1[nH]c3ccc(Cl)cc3c1-2` (racemic) is reported as > 50 µM (HepG2; cytotoxicity).
The CC50 of `NC(=O)c1ncn([C@@H]2O[C@H](CO)[C@@H](O)[C@H]2O)n1` is reported as > 640 µM (MARC145; cell growth or viability, MTT; 48 h).
For `O=C(c1cc(Cc2n[nH]c(=O)c3ccccc23)ccc1F)N1CCN(C(=O)C2CC2)CC1`, the EC50 was > 316 µM (SK-BR-3; necrosis; 24 h).
For `COc1ccc(C(=O)NC(=S)Nc2cc([N+](=O)[O-])ccc2Cl)cc1OC`, the viability was 39% (BHK-21; cell growth or viability, MTT; 100 µM, serum-free).
`CC(C)C[C@H](NC(=O)[C@@]1(Cc2ccccc2)CCN1C(=O)OCc1ccccc1)C(N)=O` — result for “minimum cytotoxic concentration”: > 100 µM (HEL; microscopic cell morphology).
`CCCCCCCCCCCCCNCC(=O)N(CC(=O)N(CCCC[N+](C)(C)C)CC(=O)N(CC[N+](C)(C)C)CC(=O)N(CC(N)=O)C1CCCCC1)C1CCCCC1` gave a TD50 of > 200 µg/mL (HepG2; cytotoxicity, MTT; 72 h).
`C[C@H](NC(=O)[C@@]1(Cc2ccccc2)CCN1C(=O)OCc1ccccc1)C(=O)NC1CCCCC1` — result for “minimum cytotoxic concentration”: 100 µM (HEL; microscopic cell morphology).
For `C=C(C[C@H](N)C(=O)O)C(=O)Nc1ccc(Cl)cc1`, the EC50 was 263 µM (SK-BR-3; necrosis; 24 h).
For `CONC(=N)c1ccc(-c2ccc(-c3ccc(C(=N)NOC)cn3)o2)cc1`, the viability was 44% (KLE; 50 µM, 72 h, 10% FBS, added: α-naphthoflavone (CYP1B1 inhibitor) 10 µM; relative to: vehicle).
With `Cc1cc(C)cc(C(=O)Nc2cc([N+](=O)[O-])ccc2Cl)c1` the viability was 47% (BHK-21; cell growth or viability, MTT; 100 µM, serum-free).
For `CC(C)C[C@@H](NC(=O)CNC(=O)[C@@H](Cc1c[nH]c2ccccc12)NC(=O)[C@@H](CCCNC(=N)N)NC(=O)[C@@H](N)CCC(N)=O)C(=O)N[C@@H](CO)C(=O)N[C@H](CC(C)C)C(=O)N[C@@H](C)C(=O)N1CCC[C@H]1C(=O)N[C@@H](Cc1ccc(O)cc1)C(=O)N[C@H](CCCCN)C(=O)N[C@@H](CC(N)=O)C(=O)N[C@@H](Cc1ccccc1)C(=O)N[C@H](CCCNC(=N)N)C(=O)N[C@H](CCCNC(=N)N)C(=O)N[C@H](CC(C)C)C(=O)N[C@@H](CO)C(N)=O`, the hemolysis was < 1% (human red blood cells; 128 µM, 18 h, 37 °C; relative to: Triton X-100).

For quick reference, copied from above:
With `COc1ccc2[nH]cc(CCNC(C)=O)c2c1` the efflux ratio was 0.99 ± 0.07 (parental MDCK-II cells; 10 µM, 4 h).
The EC50 of `C=C(C[C@H](N)C(=O)O)C(=O)Nc1ccccc1` is reported as 0.195 µM (SK-BR-3; necrosis; 24 h).
`Nc1ccn(C[C@@H](CO)OCP(=O)(O)O)c(=O)n1` — result for “minimum cytotoxic concentration”: > 300 µM (HEL; cell morphology).
`O=S(=O)(O)c1cc(N=C=S)ccc1C=Cc1ccc(N=C=S)cc1S(=O)(=O)O` gave a chloride permeability of 0.00045 mmol/kg Hb/min/mM (human red blood cells; 10 µM, 0 °C, added: 20 µM valinomycin).
For `Cc1cc(C)cc(C(=O)NC(=S)Nc2cc(Cl)c(O)c(Cl)c2)c1`, the viability was 59% (BHK-21; cell growth or viability, MTT; 100 µM, serum-free).
The TD50 of `CCCCCCCCCCCCCNCC(=O)N(CC(=O)N(CCCCN)CC(=O)N(CCN)CC(=O)N(CC(N)=O)CC1CCCCC1)CC1CCCCC1` is reported as 62 ± 3 µg/mL (HepG2; cytotoxicity, MTT; 72 h).
